{"data": "Results pooled from the literature", "note": "Each numbered part is a random draw from the data of one study; scales do not carry over between parts. Positions count from the first letter of the parent shown."}
{"data": "Series 1", "target": "CCNA2, cyclin fold, Cln2 fusion (human)", "method": "yeast growth competition, sequencing", "matrix": "yeast", "setting": "strong parent motif", "baseline": "not given", "direction": "higher = stronger binding", "starting sequence": "DBF4B docking peptide (human); LGYLYLLLTQSLW"}
{"Substitution": "Q10A", "normalised enrichment score": 1.82}
{"Substitution": "L4A", "normalised enrichment score": 1.3}
{"Substitution": "Y3A", "normalised enrichment score": 1.5}
{"Substitution": "L7A", "normalised enrichment score": 1.73}
{"Substitution": "Y5A", "normalised enrichment score": 1.65}
{"Substitution": "L1A", "normalised enrichment score": 1.97}
{"data": "Series 2", "target": "RING finger protein unkempt homolog, zinc fingers 1-6, GST-SBP tag (UNK, Homo sapiens, UniProt Q9C0B0, residues 30-357)", "method": "RNA Bind-n-Seq", "form": "RNA", "matrix": "in vitro", "tested at": "not given", "setting": "RNA with constant flanks, human and mouse sites, ends assumed", "baseline": "input RNA pool", "direction": "higher = stronger binding", "all sequences stand within": "GGGAGUUCUACAGUCCGACGAUC … CAACAGAGGAUUGAGCAUCA", "Construct (chain)": "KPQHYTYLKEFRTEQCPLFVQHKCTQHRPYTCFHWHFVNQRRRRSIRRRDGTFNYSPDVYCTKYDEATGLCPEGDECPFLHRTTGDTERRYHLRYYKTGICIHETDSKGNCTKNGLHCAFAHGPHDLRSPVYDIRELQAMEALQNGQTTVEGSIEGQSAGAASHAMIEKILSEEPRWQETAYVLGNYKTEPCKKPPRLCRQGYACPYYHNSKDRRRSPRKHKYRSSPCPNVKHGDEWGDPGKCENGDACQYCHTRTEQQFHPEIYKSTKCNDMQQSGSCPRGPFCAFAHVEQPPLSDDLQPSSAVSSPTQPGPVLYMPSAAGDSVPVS"}
{"Strand": "AUGGACCAUCUUCCUAGGAACUCCCAAGUAAACUAUUUCAGGACAUGUAUCUGCUGAAAUGUAUUUUAUUUUCAAGGUGGAGGGGAAAAUCGUCUGUUUCCUAAAUCCUGUUUAGGAUCU", "bound/input enrichment": "0.195 ratio"}
{"Strand": "GCCUUGGGGACCCCUCCCCAGCUCUGGGCAGGGCCUGGGGAUCCCACAUUCCAUGCCCAGGCUUGGGGGAGGGGGACCCAGACUUGUUGUACAUAUUUUGCAUACUGUCUGAUUAAACAC", "bound/input enrichment": "0.119 ratio"}
{"Strand": "AGGAGGAAAAUCAUCUUAUCAGACGAAGGCAAAAUGUAUGGUAGGAAUGAAUUGAUAGCCAGAUACAUCAAACUCAGGACAGGCAAGACGAGGACCAGAAAACAGGUGUCUAGUCACAUU", "bound/input enrichment": "0.198 ratio"}
{"Strand": "CUGAGUAACCGUAUGAUGGUGGUGGUGGUGGUGUCUUCCUGUCUCAACGAUACCUAUUUUCUAGUGCUGAGAUCCUGAGACAAUGAGUGGUAUGAUCCAAAUGCUUCACUUCUUCGACGU", "bound/input enrichment": "0.093 ratio"}
{"Strand": "ACUGAAUUAAAUCAUCAUGCAUAUUUGUUUCUCCAGAGCACCUUUGACAAACAUGAUUUGGACAGAGACUGUGCUUUGUCGCCUGAUGAACUUAAAGAUUUAUUUCAAGUUUUUCCUUAC", "bound/input enrichment": "0.188 ratio"}
{"Strand": "GAACCUGUUGCUGAUGAAGAAGAGGAAGACAGUGAUGAUGAUGUUGAACCUAUUACUGAAUUUAGAUUUGUGCCUAGUGAUAAAUCAGCGUUGGAGGCAAUGUUCACUGCAAUGUGCGAA", "bound/input enrichment": "1.11 ratio"}
{"Strand": "UUGAAAGGUAACGGGAGCCCAGUAAAUGGGAGUUCUCAGCUGGGAAACUCAAAUCCUUCACUGAGCUCAAAUAUUCCAAAUCUUCAAAAUUCAUUAAAUGGAACUUCUGCUAGCAGAAAG", "bound/input enrichment": "0.455 ratio"}
{"Strand": "GGACAUCAAUGCAAGCCUGAAGAAAAAGUAAUUGCUUCCUUUUAAGCCAUGGCCUAUCAGUUAUACAGAAAUACAACUUUGGGGAACAGUCUUCAAGAGAGCCUUGAUGAGCUCAUACAG", "bound/input enrichment": "0.249 ratio"}
{"data": "Series 3", "target": "Ras GTPase-activating protein-binding protein 1, full length (G3BP1, Homo sapiens, UniProt Q13283)", "method": "RNA Bind-n-Seq", "form": "RNA", "matrix": "in vitro", "tested at": "200 nM", "setting": "whole 134-nt RNA, ends assumed", "added": "150 mM KCl", "baseline": "input library", "direction": "higher = stronger binding", "all sequences stand within": "GGGAGUUCUACAGUCCGACGAUC … UGGAAUUCUCGGGUGUCAAGG", "sequence of UniProt Q13283 (whole entry, looked up)": "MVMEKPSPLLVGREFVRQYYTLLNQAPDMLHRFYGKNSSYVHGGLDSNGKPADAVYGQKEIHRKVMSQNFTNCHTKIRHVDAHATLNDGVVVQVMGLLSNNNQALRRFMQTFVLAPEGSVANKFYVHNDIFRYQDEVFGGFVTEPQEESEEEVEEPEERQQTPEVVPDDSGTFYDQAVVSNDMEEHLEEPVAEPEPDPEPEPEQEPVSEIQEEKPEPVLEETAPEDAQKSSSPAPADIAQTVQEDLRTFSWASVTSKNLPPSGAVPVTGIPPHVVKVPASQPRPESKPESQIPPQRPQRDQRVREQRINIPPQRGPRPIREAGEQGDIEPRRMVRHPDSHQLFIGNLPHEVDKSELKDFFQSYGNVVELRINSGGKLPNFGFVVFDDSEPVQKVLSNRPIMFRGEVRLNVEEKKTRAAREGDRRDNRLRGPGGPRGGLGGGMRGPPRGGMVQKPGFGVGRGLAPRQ"}
{"Strand": "UCAAGUCCUGUGCUACACAUCGUAUGUACCGAAUCGGGUUGGGGUUGGGUUGGGAAAGUAUUAUGUUACGCCGUUCGGAUCUGCACUUCC", "log2 enrichment": 1.05}
{"Strand": "UCAAGUCCUGUGCUACACAUCGUAUGUACCGAAUCGGGUUUGGUUUGGGUUUGGGAAAGUAUUAUGUUACGCCGUUCGGAUCUGCACUUC", "log2 enrichment": -0.76}
{"Strand": "AGUCCUGUGCUACACAUCGUAUGUACCGAAUCGGGAAAAAAAGGGUUUUUGGGAGGGAAAGUAUUAUGUUACGCCGUUCGGAUCUGCACU", "log2 enrichment": -0.133}
{"Strand": "CAAGUCCUGUGCUACACAUCGUAUGUACCGAAUCGGUUUUGGGGUUUUGGUUUUGGAAAGUAUUAUGUUACGCCGUUCGGAUCUGCACUU", "log2 enrichment": -0.926}
{"Strand": "UCAAGUCCUGUGCUACACAUCGUAUGUACCGAAUCGGUUUUUGGAAAGGUUUGGAAAGUAUUAUGUUACGCCGUUCGGAUCUGCACUUCC", "log2 enrichment": -1.18}
{"Strand": "GUCCUGUGCUACACAUCGUAUGUACCGAAUCGGGGAAAAAGGGGAAAGGGGUUUGGGGAAAGUAUUAUGUUACGCCGUUCGGAUCUGCAC", "log2 enrichment": 0.438}
{"Strand": "CCUGUGCUACACAUCGUAUGUACCGAAUCGGGCCCCCCCGGCCCCCCCGGGCCCCCCCGGGAAAGUAUUAUGUUACGCCGUUCGGAUCUG", "log2 enrichment": -0.264}
{"Strand": "UGGCCCUGGUGGCAUGCGGGGAGGAAGAGGUAGCCUCAUGGAUCGUGGUGGUCCCGGUGGAAUGUUCAGAGGUGGCCGUGGUGGAGACAG", "log2 enrichment": 0.274}
{"Strand": "AAGUCCUGUGCUACACAUCGUAUGUACCGAAUCGGCCCCGGCCCCGGGGCCCCGGGGAAAGUAUUAUGUUACGCCGUUCGGAUCUGCACU", "log2 enrichment": -0.552}
{"data": "Single results of other studies"}
{"Substance": "PhoQ, residues 284 288 289 292 302 303 SLKLQV", "target": "PhoP, residues 12 14 15 18 19 TPLRH (Escherichia coli, UniProt P23836)", "test": "Sort-seq, refers to: YFP reporter", "system": "E. coli", "conditions": "PhoQ-PhoP variant library, added: 10 µM Mg2+", "how to read": "baseline: high Mg2+ state, higher = stronger signaling", "endpoint": "fold induction", "result": 5.05}
{"note": "A few entries again (series 2):"}
{"Strand": "UUGAAAGGUAACGGGAGCCCAGUAAAUGGGAGUUCUCAGCUGGGAAACUCAAAUCCUUCACUGAGCUCAAAUAUUCCAAAUCUUCAAAAUUCAUUAAAUGGAACUUCUGCUAGCAGAAAG", "bound/input enrichment": "0.455 ratio"}
{"Strand": "AGGAGGAAAAUCAUCUUAUCAGACGAAGGCAAAAUGUAUGGUAGGAAUGAAUUGAUAGCCAGAUACAUCAAACUCAGGACAGGCAAGACGAGGACCAGAAAACAGGUGUCUAGUCACAUU", "bound/input enrichment": "0.198 ratio"}
{"Strand": "ACUGAAUUAAAUCAUCAUGCAUAUUUGUUUCUCCAGAGCACCUUUGACAAACAUGAUUUGGACAGAGACUGUGCUUUGUCGCCUGAUGAACUUAAAGAUUUAUUUCAAGUUUUUCCUUAC", "bound/input enrichment": "0.188 ratio"}
{"Strand": "CUGAGUAACCGUAUGAUGGUGGUGGUGGUGGUGUCUUCCUGUCUCAACGAUACCUAUUUUCUAGUGCUGAGAUCCUGAGACAAUGAGUGGUAUGAUCCAAAUGCUUCACUUCUUCGACGU", "bound/input enrichment": "0.093 ratio"}
